Experimental data pooled from the literature.
A part holds a random share of what one study measured.
UniProt Q16620, sequence (whole entry, looked up): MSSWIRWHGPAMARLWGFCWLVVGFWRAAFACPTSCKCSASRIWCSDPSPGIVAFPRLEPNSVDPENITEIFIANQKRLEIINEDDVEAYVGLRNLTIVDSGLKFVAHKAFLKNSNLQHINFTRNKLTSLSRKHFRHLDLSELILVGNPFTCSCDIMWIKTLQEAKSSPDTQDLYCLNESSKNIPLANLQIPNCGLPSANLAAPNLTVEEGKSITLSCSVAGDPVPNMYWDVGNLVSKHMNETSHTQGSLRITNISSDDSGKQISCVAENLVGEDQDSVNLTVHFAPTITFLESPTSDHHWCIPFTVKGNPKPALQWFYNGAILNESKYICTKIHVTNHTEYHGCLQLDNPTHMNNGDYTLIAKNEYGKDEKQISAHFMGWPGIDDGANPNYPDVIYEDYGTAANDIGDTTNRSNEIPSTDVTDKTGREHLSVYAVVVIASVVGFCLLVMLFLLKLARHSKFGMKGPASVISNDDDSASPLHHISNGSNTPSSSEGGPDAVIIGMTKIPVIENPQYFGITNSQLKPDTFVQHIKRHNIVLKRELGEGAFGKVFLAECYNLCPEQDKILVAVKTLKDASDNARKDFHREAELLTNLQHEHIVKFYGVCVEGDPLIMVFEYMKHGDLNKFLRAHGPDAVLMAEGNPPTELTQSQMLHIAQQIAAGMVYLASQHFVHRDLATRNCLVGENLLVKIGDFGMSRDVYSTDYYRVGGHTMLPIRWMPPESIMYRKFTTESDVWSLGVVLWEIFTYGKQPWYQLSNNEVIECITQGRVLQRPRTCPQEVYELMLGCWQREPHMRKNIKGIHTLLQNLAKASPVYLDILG
UniProt Q15349, sequence (whole entry, looked up): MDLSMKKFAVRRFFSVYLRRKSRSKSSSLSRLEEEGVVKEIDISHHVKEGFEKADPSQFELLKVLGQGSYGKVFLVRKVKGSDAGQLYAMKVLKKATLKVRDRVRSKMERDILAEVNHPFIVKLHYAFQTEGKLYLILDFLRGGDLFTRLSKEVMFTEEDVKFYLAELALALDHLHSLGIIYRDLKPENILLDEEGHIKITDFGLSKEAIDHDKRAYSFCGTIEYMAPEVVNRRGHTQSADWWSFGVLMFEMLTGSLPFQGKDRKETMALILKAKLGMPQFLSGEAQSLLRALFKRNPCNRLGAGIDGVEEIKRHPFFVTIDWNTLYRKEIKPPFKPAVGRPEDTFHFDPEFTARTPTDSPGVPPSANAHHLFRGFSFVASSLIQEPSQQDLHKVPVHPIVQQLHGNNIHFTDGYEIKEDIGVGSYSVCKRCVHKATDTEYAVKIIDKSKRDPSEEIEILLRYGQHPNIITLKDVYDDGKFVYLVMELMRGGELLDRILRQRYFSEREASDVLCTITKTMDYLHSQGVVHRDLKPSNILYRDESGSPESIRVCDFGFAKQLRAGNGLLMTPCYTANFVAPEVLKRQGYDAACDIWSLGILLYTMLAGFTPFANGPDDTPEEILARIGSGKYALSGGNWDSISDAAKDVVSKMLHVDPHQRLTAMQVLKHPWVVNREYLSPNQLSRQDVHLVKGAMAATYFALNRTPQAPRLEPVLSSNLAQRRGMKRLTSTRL
UniProt Q13555, sequence (whole entry, looked up): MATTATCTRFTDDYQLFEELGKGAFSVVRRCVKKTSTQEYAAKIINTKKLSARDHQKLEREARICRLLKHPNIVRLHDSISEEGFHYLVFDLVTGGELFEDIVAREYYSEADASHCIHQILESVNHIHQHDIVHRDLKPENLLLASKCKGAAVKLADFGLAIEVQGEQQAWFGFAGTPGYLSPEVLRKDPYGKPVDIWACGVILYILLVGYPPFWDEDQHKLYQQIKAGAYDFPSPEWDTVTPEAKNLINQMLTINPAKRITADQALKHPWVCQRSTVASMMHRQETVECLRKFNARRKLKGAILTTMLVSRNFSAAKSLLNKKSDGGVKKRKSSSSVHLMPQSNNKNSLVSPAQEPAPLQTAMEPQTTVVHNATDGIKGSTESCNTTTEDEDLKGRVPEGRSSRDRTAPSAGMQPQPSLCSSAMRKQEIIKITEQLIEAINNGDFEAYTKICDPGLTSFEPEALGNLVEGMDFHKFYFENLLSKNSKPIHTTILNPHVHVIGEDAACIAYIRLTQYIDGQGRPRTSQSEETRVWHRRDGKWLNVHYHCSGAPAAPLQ
UniProt P10721, sequence (whole entry, unmodified, looked up): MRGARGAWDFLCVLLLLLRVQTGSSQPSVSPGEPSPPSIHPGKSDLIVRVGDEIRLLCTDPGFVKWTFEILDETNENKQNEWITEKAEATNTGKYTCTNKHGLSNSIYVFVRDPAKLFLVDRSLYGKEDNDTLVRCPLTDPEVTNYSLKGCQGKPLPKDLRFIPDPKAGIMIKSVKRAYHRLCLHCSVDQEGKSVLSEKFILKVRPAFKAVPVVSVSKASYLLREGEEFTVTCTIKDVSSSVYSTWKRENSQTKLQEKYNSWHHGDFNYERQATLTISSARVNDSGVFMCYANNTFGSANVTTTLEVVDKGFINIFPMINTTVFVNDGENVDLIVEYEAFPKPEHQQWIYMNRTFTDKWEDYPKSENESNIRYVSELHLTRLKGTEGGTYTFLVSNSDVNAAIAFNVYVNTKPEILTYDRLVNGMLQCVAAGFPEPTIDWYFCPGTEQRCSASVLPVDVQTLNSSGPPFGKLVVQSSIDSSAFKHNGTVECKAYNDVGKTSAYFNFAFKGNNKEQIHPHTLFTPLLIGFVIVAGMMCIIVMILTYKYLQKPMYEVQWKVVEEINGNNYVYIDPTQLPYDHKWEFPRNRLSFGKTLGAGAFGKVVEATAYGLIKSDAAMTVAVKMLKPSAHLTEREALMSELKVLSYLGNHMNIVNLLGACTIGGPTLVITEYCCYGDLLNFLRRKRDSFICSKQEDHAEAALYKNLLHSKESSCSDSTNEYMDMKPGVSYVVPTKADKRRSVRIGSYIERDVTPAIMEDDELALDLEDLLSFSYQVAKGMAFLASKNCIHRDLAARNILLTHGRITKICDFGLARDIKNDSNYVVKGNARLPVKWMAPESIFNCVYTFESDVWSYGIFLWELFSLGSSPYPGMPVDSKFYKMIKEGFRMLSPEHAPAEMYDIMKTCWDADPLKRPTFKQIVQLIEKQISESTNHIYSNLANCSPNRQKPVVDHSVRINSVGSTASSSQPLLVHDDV
UniProt P42338, sequence (whole entry, looked up): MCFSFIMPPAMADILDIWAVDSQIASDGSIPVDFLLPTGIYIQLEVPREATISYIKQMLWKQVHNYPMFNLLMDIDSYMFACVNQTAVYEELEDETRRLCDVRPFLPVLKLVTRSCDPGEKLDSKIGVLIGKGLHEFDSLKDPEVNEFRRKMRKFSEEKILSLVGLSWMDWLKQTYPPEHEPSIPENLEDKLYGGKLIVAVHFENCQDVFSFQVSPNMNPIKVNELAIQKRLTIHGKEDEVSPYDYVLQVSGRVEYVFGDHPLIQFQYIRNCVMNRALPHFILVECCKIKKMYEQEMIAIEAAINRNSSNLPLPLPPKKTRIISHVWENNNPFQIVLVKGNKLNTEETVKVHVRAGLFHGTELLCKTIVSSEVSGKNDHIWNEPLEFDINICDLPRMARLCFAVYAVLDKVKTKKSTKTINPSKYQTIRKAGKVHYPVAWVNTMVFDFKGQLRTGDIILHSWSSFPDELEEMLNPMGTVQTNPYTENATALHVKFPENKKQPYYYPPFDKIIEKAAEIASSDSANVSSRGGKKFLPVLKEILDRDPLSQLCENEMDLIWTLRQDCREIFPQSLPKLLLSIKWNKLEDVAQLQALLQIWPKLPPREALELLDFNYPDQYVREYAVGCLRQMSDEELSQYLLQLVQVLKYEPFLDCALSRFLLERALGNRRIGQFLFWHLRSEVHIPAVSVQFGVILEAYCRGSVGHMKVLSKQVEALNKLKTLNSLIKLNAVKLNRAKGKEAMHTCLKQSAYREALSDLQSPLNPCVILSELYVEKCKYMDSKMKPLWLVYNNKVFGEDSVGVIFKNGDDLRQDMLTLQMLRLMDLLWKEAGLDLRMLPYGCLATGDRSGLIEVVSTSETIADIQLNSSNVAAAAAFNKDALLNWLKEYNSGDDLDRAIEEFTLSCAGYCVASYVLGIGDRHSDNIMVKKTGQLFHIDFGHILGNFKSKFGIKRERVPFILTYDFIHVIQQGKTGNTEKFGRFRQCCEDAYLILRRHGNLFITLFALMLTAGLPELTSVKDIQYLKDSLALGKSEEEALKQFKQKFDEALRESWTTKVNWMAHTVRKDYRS

Set 1
Target: Serine/threonine-protein kinase Nek4 (NEK4, Homo sapiens, UniProt P51957)
UniProt P51957, sequence (whole entry, looked up): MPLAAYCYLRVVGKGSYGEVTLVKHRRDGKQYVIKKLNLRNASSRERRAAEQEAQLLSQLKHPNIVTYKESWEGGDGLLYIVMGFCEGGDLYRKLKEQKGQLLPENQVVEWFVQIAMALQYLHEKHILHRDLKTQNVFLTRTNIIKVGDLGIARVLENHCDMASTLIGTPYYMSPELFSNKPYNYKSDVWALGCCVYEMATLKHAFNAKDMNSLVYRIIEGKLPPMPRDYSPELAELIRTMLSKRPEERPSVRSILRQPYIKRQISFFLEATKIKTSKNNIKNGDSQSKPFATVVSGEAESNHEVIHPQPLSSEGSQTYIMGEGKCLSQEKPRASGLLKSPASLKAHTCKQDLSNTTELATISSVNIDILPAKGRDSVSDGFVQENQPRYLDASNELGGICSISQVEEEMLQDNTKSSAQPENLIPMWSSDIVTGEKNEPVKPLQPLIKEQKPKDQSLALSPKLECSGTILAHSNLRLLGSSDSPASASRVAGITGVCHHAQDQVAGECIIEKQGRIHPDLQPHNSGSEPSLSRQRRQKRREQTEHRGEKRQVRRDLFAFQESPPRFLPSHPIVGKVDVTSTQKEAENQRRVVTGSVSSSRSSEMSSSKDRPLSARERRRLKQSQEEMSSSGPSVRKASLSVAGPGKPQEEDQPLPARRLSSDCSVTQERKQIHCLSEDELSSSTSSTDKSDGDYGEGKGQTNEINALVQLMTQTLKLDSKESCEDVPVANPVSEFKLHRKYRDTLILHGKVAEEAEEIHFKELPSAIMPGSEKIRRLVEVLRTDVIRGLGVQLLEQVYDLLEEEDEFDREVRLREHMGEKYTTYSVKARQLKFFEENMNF
Effect on: enzyme activity
Mode: inhibitor
Concentration: 0.5 µM
Baseline: control
`c1ccc(-c2[nH]ncc2-c2ccnc3ccccc23)nc1` has a remaining activity of 95.8%.
The remaining activity of `C[C@@H]1CCN(C(=O)CC#N)C[C@@H]1N(C)c1ncnc2[nH]ccc12` is reported as 96%.
With `Cc1cc2ncc(-c3ccccc3)nc2cc1C` the remaining activity was 99.3%.
With `Ic1cccc(CSc2nnc(-c3ccncc3)o2)c1` the remaining activity was 93.7%.
The remaining activity of `COc1cc2ncnc(Nc3ccc(O)c(Br)c3)c2cc1OC` is reported as 93.1%.
`CCOc1nc(NC(=O)Cc2cc(OC)ccc2OC)cc(N)c1C#N` gave a remaining activity of 93.2%.
For `O=C(Nc1cccc(Nc2nccc(Nc3cccc(C(F)(F)F)c3)n2)c1)C1CC1`, the remaining activity was 83.4%.
The remaining activity of `O=C(NC(NC(=S)Nc1ccc(F)c([N+](=O)[O-])c1)C(Cl)(Cl)Cl)C(c1ccccc1)c1ccccc1` (stereo not shown) is reported as 87.8%.
`COc1cc2c(cc1OC)-c1[nH]nc(Nc3cccc(F)c3)c1C2` has a remaining activity of 101%.
For `Cc1nc2cc3nc(-c4cccs4)cnc3cc2n1C`, the remaining activity was 95.2%.
The remaining activity of `CCN(CC)CCNC(=O)c1c(C)[nH]c(/C=C2\C(=O)Nc3ccc(Cl)cc32)c1C` is reported as 97%.
With `O=c1cc(-c2cccc3c2Sc2ccccc2S3)oc(N2CCOCC2)c1` the remaining activity was 90%.
With `COc1cc2ncnc(Nc3cccc(Cl)c3)c2cc1OC` the remaining activity was 87.5%.
The remaining activity of `O=C1c2ccccc2-c2n[nH]c3cccc1c23` is reported as 89.8%.
With `O=C1C(Cl)=C(N2C(=O)CCC2=O)C(=O)c2ccccc21` the remaining activity was 99.6%.
The remaining activity of `CCN(CC)CCNC(=O)c1c(C)[nH]c(/C=C2\C(=O)Nc3ccc(F)cc32)c1C` is reported as 94.1%.
The remaining activity of `CN(C)C[C@H]1CCn2c(c(C3=C(c4cn(C)c5ccccc45)C(=O)NC3=O)c3ccccc32)C1` is reported as 96.7%.
`CCN(CC)C(=O)c1ccc(Nc2nc(OCC3CCCCC3)c3[nH]cnc3n2)cc1` gave a remaining activity of 87.9%.
The remaining activity of `Nc1cccc(-c2cc3c(Oc4cccc(O)c4)ncnc3[nH]2)c1` is reported as 91.4%.
With `N#C/C(=C\c1ccc(O)c(O)c1)C(=O)NCc1ccccc1` the remaining activity was 98.6%.
`N#Cc1c(NC(=O)c2cccc3ccccc23)sc2c1CCCC2` has a remaining activity of 94.6%.
With `Cc1cn(-c2cc(NC(=O)c3ccc(C)c(Nc4nccc(-c5cccnc5)n4)c3)cc(C(F)(F)F)c2)cn1` the remaining activity was 102%.
For `CN([C@@H](Cc1ccc(OS(=O)(=O)c2cccc3cnccc23)cc1)C(=O)N1CCN(c2ccccc2)CC1)S(=O)(=O)c1cccc2cnccc12`, the remaining activity was 99.5%.
For `Cn1nc2c3c(cccc31)C(=O)c1ccccc1-2`, the remaining activity was 89.8%.
For `c1ccc(-c2cnc(Nc3ccc(OCCN4CCCC4)cc3)s2)cc1`, the remaining activity was 96.1%.

Set 2
SMILES: CN1CCN(C(=O)c2ccc(NC(=O)Nc3ccc(N(C)c4ccnc(Nc5ccc(CS(C)(=O)=O)cc5)n4)cc3)cc2)CC1
Concentration: 1 µM
It gave 76% for remaining binding (TAOK2 (Homo sapiens, UniProt Q9UL54); competitive binding panel; baseline: vehicle).
CAMK2G (Homo sapiens, UniProt Q13555); competitive binding panel; baseline: vehicle — remaining binding: 100%.
SRC (Homo sapiens, UniProt P12931); competitive binding panel; baseline: vehicle — remaining binding: 100%.
The remaining binding was 25% (ERN1 (Homo sapiens, UniProt O75460); competitive binding panel; baseline: vehicle).
For PIK3C2G (Homo sapiens, UniProt O75747); competitive binding panel; baseline: vehicle: remaining binding read 100%.
For NTRK2 (Homo sapiens, UniProt Q16620); competitive binding; TRKB: remaining binding read 11%.
The remaining binding was 66% (NEK3 (Homo sapiens, UniProt P51956); competitive binding panel; baseline: vehicle).
The remaining binding was 100% (PIK3CB (Homo sapiens, UniProt P42338); competitive binding panel; baseline: vehicle).
BRAF (Homo sapiens, UniProt P15056); competitive binding panel; baseline: vehicle — remaining binding: 89%.
CAMK4 (Homo sapiens, UniProt Q16566); competitive binding panel; baseline: vehicle — remaining binding: 100%.
The remaining binding was 72% (CDKL3 (Homo sapiens, UniProt Q8IVW4); competitive binding panel; baseline: vehicle).
For TNK1 (Homo sapiens, UniProt Q13470); competitive binding panel; baseline: vehicle: remaining binding read 6.7%.

Set 3
SMILES: COc1cccc(CNC(=O)c2nc3scc(COCc4ccc(C(=O)O)cc4)c3c(=O)[nH]2)c1
Effect on: cell-free assay
Method: competition with immobilised ligand
Concentration: 1 µM
BMX (Homo sapiens, UniProt P51813) — remaining binding: 100%.
For Tyrosine-protein kinase ABL1, phosphorylated (ABL1, Homo sapiens, UniProt P00519, M351T): remaining binding read 84.4%.
It gave 77.8% for remaining binding (EGFR (Homo sapiens, UniProt P00533, L861Q)).
EGFR (Homo sapiens, UniProt P00533, del752-759) — remaining binding: 98.7%.
For Ribosomal protein S6 kinase alpha-2, C-terminal kinase domain (RPS6KA2, Homo sapiens, UniProt Q15349): remaining binding read 100%.
The remaining binding was 100% (ROCK1 (Homo sapiens, UniProt Q13464)).
For Tyrosine-protein kinase ABL1, non-phosphorylated (ABL1, Homo sapiens, UniProt P00519, H396P): remaining binding read 86.4%.
For YES1 (Homo sapiens, UniProt P07947): remaining binding read 85.2%.
For Tyrosine-protein kinase ABL1, phosphorylated (ABL1, Homo sapiens, UniProt P00519, Q252H): remaining binding read 91.4%.
It gave 100% for remaining binding (MAP3K14 (Homo sapiens, UniProt Q99558)).
The remaining binding was 92.5% (CAMK2A (Homo sapiens, UniProt Q9UQM7)).
For PIK3CA (Homo sapiens, UniProt P42336, H1047Y): remaining binding read 100%.
CDKL1 (Homo sapiens, UniProt Q00532) — remaining binding: 100%.
It gave 100% for remaining binding (TNIK (Homo sapiens, UniProt Q9UKE5)).
For MET (Homo sapiens, UniProt P08581): remaining binding read 100%.
For Ribosomal protein S6 kinase alpha-3, N-terminal kinase domain (RPS6KA3, Homo sapiens, UniProt P51812): remaining binding read 100%.
It gave 100% for remaining binding (PKN1 (Homo sapiens, UniProt Q16512)).
DYRK1A (Homo sapiens, UniProt Q13627) — remaining binding: 89.5%.
It gave 100% for remaining binding (DCLK3 (Homo sapiens, UniProt Q9C098)).
It gave 67.1% for remaining binding (NTRK2 (Homo sapiens, UniProt Q16620)).
The remaining binding was 69.2% (KIT (Homo sapiens, UniProt P10721, A829P)).
For PIK3C2B (Homo sapiens, UniProt O00750): remaining binding read 80.6%.
It gave 82.3% for remaining binding (Ribosomal protein S6 kinase alpha-4, C-terminal kinase domain (RPS6KA4, Homo sapiens, UniProt O75676)).
It gave 100% for remaining binding (SBK3 (Homo sapiens, UniProt P0C264)).
For MAP4K5 (Homo sapiens, UniProt Q9Y4K4): remaining binding read 87.3%.

Set 4
Cell line: A-375
Concentration: 100 µM
Time: 18 h
For `Cc1ccc(C(=O)Nc2ccc(S(=O)(=O)O)c3cc(S(=O)(=O)O)cc(S(=O)(=O)O)c23)cc1NC(=O)c1cccc(NC(=O)Nc2cccc(C(=O)Nc3cc(C(=O)Nc4ccc(S(=O)(=O)O)c5cc(S(=O)(=O)O)cc(S(=O)(=O)O)c45)ccc3C)c2)c1`, the viability was 104%.
For `O=C1CCCC(=O)C1C(=O)c1ccc(C(F)(F)F)cc1[N+](=O)[O-]`, the viability was 102%.
`CCOc1ccc2nc(SCCN3CCOCC3)[nH]c2c1` has a viability of 110%.
For `CC[C@H]1OC(=O)[C@H](C)[C@@H](O[C@H]2C[C@@](C)(OC)[C@@H](O)[C@H](C)O2)[C@H](C)[C@@H](O[C@@H]2O[C@H](C)C[C@H](N(C)C)[C@H]2O)[C@](C)(O)C[C@@H](C)C(=O)[C@H](C)[C@@H](O)[C@]1(C)O`, the viability was 94.4%.
For `COc1cc([C@@H]2c3cc4c(cc3[C@@H](O[C@@H]3O[C@@H]5CO[C@@H](c6cccs6)O[C@H]5[C@H](O)[C@H]3O)[C@H]3COC(=O)[C@H]23)OCO4)cc(OC)c1O`, the viability was 18.6%.
For `CC(c1cc2ccccc2s1)N(O)C(N)=O` (stereo not shown), the viability was 105%.
The viability of `Cc1cccc(C)c1OCC(C)N` (stereo not shown) is reported as 90%.
`O=C(O)[C@@H](S)[C@@H](S)C(=O)O` has a viability of 99.9%.
`C=C1c2cccc(O)c2C(=O)C2=C(O)[C@]3(O)C(=O)C(C(N)=O)=C(O)[C@@H](N(C)C)[C@@H]3[C@@H](O)[C@H]12` gave a viability of 110%.
For `[H]/N=C(/N)NS(=O)(=O)c1ccc(N)cc1`, the viability was 96.7%.
The viability of `Nc1nc2c(c(=O)[nH]1)N(C=O)C(CNc1ccc(C(=O)N[C@@H](CCC(=O)O)C(=O)O)cc1)CN2` (stereo partly shown) is reported as 103%.

Some of these lines once more (set 1):
The remaining activity of `CCN(CC)CCNC(=O)c1c(C)[nH]c(/C=C2\C(=O)Nc3ccc(F)cc32)c1C` is reported as 94.1%.
The remaining activity of `CN(C)C[C@H]1CCn2c(c(C3=C(c4cn(C)c5ccccc45)C(=O)NC3=O)c3ccccc32)C1` is reported as 96.7%.
`CCN(CC)C(=O)c1ccc(Nc2nc(OCC3CCCCC3)c3[nH]cnc3n2)cc1` gave a remaining activity of 87.9%.
The remaining activity of `Nc1cccc(-c2cc3c(Oc4cccc(O)c4)ncnc3[nH]2)c1` is reported as 91.4%.
With `N#C/C(=C\c1ccc(O)c(O)c1)C(=O)NCc1ccccc1` the remaining activity was 98.6%.
